Published values pooled from the literature.
SRC: Proto-oncogene tyrosine-protein kinase Src (SRC, Homo sapiens, UniProt P12931)
PPO3: PPO3 (Agaricus bisporus, UniProt C7FF04)
UniProt C7FF04, sequence (whole entry, looked up): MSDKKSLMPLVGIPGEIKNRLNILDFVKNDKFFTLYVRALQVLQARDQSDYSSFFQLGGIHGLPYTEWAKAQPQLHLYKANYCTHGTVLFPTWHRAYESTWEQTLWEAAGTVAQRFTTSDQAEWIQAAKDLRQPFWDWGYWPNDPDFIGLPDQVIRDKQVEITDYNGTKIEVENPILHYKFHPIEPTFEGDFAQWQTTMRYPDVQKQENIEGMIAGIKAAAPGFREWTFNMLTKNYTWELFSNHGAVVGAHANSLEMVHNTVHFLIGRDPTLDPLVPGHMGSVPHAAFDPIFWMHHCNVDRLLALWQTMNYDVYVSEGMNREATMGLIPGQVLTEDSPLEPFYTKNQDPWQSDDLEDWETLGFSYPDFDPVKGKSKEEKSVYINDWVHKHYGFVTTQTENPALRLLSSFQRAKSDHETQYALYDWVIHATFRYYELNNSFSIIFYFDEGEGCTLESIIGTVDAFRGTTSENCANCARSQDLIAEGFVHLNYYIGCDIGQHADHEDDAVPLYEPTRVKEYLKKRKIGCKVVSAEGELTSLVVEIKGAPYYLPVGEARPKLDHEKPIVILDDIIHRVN
UniProt Q9UH17, sequence (whole entry, looked up): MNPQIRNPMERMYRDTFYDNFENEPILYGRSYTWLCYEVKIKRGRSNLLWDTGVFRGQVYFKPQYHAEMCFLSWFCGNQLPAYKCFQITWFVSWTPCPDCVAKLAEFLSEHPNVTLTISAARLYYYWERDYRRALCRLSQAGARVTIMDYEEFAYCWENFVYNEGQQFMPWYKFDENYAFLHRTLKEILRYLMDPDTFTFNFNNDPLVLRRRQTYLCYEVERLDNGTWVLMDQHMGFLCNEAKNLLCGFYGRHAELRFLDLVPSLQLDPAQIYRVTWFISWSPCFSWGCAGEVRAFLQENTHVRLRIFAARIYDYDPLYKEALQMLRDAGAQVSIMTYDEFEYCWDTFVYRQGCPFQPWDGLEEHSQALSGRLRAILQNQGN
UniProt P41240, sequence (whole entry, looked up): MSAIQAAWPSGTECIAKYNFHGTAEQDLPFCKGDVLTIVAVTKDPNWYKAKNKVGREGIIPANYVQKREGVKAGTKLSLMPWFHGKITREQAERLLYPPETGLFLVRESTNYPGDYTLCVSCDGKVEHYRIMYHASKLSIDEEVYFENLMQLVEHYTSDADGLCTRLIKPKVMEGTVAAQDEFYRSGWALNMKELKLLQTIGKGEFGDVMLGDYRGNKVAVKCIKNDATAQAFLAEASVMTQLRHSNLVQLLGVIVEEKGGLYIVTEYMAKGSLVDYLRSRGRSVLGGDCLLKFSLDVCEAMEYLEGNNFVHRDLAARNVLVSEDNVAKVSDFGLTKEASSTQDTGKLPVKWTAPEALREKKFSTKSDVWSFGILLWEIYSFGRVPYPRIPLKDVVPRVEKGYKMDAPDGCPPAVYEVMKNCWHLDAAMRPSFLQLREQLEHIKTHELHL
UniProt P17302, sequence (whole entry, looked up): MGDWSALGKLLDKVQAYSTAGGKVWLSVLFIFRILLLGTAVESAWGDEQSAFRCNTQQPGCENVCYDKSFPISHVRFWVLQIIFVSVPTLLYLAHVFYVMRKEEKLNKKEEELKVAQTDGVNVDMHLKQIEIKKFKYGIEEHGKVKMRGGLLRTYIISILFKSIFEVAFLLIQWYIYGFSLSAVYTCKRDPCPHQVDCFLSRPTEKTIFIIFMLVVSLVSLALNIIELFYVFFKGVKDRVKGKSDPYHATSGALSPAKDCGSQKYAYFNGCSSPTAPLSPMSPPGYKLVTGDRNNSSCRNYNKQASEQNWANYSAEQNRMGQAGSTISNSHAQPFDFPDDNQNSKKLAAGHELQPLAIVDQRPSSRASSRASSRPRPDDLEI
UniProt B2RXH2, sequence (whole entry, looked up): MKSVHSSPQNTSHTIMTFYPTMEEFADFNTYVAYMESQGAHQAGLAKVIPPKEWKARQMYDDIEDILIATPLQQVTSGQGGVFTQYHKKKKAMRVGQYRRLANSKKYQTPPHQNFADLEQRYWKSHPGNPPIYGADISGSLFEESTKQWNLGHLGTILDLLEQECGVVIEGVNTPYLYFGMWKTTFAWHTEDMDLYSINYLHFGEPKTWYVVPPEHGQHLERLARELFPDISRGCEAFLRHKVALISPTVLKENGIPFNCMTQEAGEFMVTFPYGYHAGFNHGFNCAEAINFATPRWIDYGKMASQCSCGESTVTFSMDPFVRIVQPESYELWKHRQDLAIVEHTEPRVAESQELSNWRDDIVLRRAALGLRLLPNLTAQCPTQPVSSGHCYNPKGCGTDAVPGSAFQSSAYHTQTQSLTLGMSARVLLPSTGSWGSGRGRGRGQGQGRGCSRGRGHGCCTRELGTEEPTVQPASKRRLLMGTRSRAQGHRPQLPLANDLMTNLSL
UniProt P07333, sequence (whole entry, looked up): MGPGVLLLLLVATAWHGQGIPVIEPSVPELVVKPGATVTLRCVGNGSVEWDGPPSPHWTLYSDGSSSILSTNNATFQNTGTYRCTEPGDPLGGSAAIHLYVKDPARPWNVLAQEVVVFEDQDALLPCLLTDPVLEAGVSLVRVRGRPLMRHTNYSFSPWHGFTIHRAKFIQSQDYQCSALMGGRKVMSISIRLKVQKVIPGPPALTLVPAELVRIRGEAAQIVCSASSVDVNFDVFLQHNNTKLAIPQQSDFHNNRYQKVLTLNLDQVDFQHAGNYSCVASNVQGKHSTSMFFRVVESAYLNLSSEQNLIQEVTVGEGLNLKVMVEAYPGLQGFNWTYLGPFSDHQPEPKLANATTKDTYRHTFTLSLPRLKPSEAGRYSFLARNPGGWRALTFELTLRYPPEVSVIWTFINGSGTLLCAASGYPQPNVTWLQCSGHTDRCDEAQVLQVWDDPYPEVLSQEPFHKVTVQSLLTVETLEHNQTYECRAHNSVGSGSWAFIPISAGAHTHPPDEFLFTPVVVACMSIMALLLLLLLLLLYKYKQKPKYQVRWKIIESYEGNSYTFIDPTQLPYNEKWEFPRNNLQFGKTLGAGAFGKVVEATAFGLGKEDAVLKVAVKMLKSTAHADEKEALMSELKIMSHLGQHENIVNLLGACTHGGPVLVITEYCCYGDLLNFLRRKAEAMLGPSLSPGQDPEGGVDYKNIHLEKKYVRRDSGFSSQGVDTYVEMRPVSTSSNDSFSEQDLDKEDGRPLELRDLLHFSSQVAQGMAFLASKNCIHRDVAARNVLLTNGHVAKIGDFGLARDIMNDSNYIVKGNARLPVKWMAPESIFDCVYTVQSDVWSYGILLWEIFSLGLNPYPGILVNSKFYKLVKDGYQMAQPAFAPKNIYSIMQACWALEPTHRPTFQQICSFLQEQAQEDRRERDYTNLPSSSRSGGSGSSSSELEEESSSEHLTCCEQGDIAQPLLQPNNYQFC

Structure (SMILES) | target | assay | system | setting | scale | remaining activity [%]
CC(=O)N[C@@H](Cc1c[nH]c2ccccc12)C(=O)N[C@@H](Cc1c[nH]c2ccccc12)C(=O)N[C@@H](Cc1c[nH]c2ccccc12)C(=O)N[C@@H](Cc1c[nH]c2ccccc12)C(=O)N[C@@H](Cc1c[nH]c2ccccc12)C(=O)N[C@@H](Cc1c[nH]c2ccccc12)C(=O)NCCCC[C@@H]1NC(=O)[C@H](CCCNC(=N)N)NC(=O)[C@H](CCCNC(=N)N)NC(=O)[C@H](CCCNC(=N)N)NC(=O)[C@H](CCCNC(=N)N)NC(=O)[C@H](CCCNC(=N)N)NC(=O)[C@H](CCCNC(=N)N)NC1=O | SRC | enzyme activity, inhibitor, radiometric |  | 5 µM |  | 141
CC(C)C[C@H](NC(=O)[C@H](CCCNC(=N)N)NC(=O)[C@@H](N)CS)C(=O)N[C@@H](CC(N)=O)C(=O)O | PPO3 | enzyme activity, inhibitor |  | 50 µM |  | 86.2
N=C(N)NCCC[C@@H]1NC(=O)[C@H](Cc2c[nH]c3ccccc23)NC(=O)[C@H](CCCNC(=N)N)NC(=O)[C@H](Cc2c[nH]c3ccccc23)NC(=O)[C@H](CCCNC(=N)N)NC(=O)[C@H](Cc2c[nH]c3ccccc23)NC(=O)[C@H](CCCNC(=N)N)NC(=O)[C@H](Cc2c[nH]c3ccccc23)NC(=O)[C@H](CCCNC(=N)N)NC(=O)[C@H](Cc2c[nH]c3ccccc23)NC(=O)[C@H](CCCNC(=N)N)NC(=O)[C@H](Cc2c[nH]c3ccccc23)NC(=O)[C@H](CCCNC(=N)N)NC(=O)[C@H](Cc2c[nH]c3ccccc23)NC(=O)[C@H](CCCNC(=N)N)NC(=O)[C@H](Cc2c[nH]c3ccccc23)NC(=O)[C@H](CCCNC(=N)N)NC(=O)[C@H](Cc2c[nH]c3ccccc23)NC1=O | SRC | enzyme activity, inhibitor, radiometric |  | 5 µM |  | 1.4
CC[C@H](C)[C@H](NC(=O)[C@H](CCC(=O)O)NC(=O)[C@@H](NC(=O)[C@H](CCC(N)=O)NC(=O)[C@@H](N)CCCCN)[C@@H](C)CC)C(=O)N[C@@H](CCCCN)C(=O)N[C@@H](CCCCN)C(=O)N[C@@H](Cc1ccccc1)C(=O)N[C@@H](CCCCN)C(=O)O | Gap junction alpha-1 protein (GJA1, Homo sapiens, UniProt P17302) | hemichannel charge transfer, whole-cell voltage clamp | HeLa-Cx43 | 400 µM, intracellular, up to +70 mV | baseline: control | ~25
CN(CC(=O)c1ccc2[nH]c(=O)[nH]c2c1)Cc1ccco1 | DNA dC->dU-editing enzyme APOBEC-3B (Homo sapiens, UniProt Q9UH17) | deaminase activity, inhibitor, alkaline cleavage | purified, expressed in 293T | 700 µM |  | 5
O=C(Cc1c(-c2ccccc2)n[nH]c1-c1ccccc1)NO | Disintegrin and metalloproteinase domain-containing protein 10 (ADAM10, Homo sapiens, UniProt O14672) | enzyme activity, inhibitor |  | 10 µM |  | 73
CC1(C)CCN(Cc2ccc(C(=O)NC[C@]3(O)CCCN(c4cc(NCc5ccccc5)ncn4)C3)c(O)c2)CC1 | Macrophage colony-stimulating factor 1 receptor (CSF1R, Homo sapiens, UniProt P07333) | kinase activity, radiometric |  | 10 µM, added: 10 µM ATP |  | 92
CC(C)C[C@H](NC(=O)[C@H](CC(C)C)NC(=O)[C@H](CCCNC(=N)N)NC(=O)[C@@H](N)CS)C(=O)O | PPO3 | enzyme activity, inhibitor |  | 200 µM |  | 31.9
O=C(CCCC[C@@H]1CCSS1)NCCC(=O)N[C@@H](Cc1cnc[nH]1)C(=O)O (mixture of isomers) | Transient receptor potential cation channel subfamily A member 1 (Trpa1, Mus musculus, UniProt Q8BLA8) | ion current, inhibitor, patch clamp | CHO | 30 µM |  | 3.1
N=C(N)NCCC[C@H](NC(=O)[C@@H](N)CS)C(=O)N[C@@H](CC(N)=O)C(=O)N[C@@H](CC(N)=O)C(=O)O | PPO3 | enzyme activity, inhibitor |  | 200 µM |  | 12.9
O=C(O)c1ccnc(C(=O)O)c1Br | Lysine-specific demethylase 4E (KDM4E, Homo sapiens, UniProt B2RXH2) | inhibitor, FDH-coupled formaldehyde |  | 200 µM |  | 67
NC(=O)C[C@H](NC(=O)[C@H](CC(N)=O)NC(=O)[C@H](CCC(=O)O)NC(=O)[C@@H](N)CS)C(=O)O | PPO3 | enzyme activity, inhibitor |  | 100 µM |  | 63.3
CC(=O)N[C@@H](Cc1c[nH]c2ccccc12)C(=O)N[C@@H](Cc1c[nH]c2ccccc12)C(=O)N[C@@H](Cc1c[nH]c2ccccc12)C(=O)N[C@@H](Cc1c[nH]c2ccccc12)C(=O)N[C@@H](Cc1c[nH]c2ccccc12)C(=O)N[C@@H](Cc1c[nH]c2ccccc12)C(=O)N[C@@H](Cc1c[nH]c2ccccc12)C(=O)NCCCC[C@@H]1NC(=O)[C@H](CCCNC(=N)N)NC(=O)[C@H](CCCNC(=N)N)NC(=O)[C@H](CCCNC(=N)N)NC(=O)[C@H](CCCNC(=N)N)NC(=O)[C@H](CCCNC(=N)N)NC1=O | Tyrosine-protein kinase CSK (CSK, Homo sapiens, UniProt P41240) | kinase activity, Reaction Biology radiometric |  | concentration not given, added: ATP 200 µM | baseline: DMSO | 69.7

For quick reference, copied from above:
Structure (SMILES) | target | assay | system | setting | scale | remaining activity [%]
N=C(N)NCCC[C@@H]1NC(=O)[C@H](Cc2c[nH]c3ccccc23)NC(=O)[C@H](CCCNC(=N)N)NC(=O)[C@H](Cc2c[nH]c3ccccc23)NC(=O)[C@H](CCCNC(=N)N)NC(=O)[C@H](Cc2c[nH]c3ccccc23)NC(=O)[C@H](CCCNC(=N)N)NC(=O)[C@H](Cc2c[nH]c3ccccc23)NC(=O)[C@H](CCCNC(=N)N)NC(=O)[C@H](Cc2c[nH]c3ccccc23)NC(=O)[C@H](CCCNC(=N)N)NC(=O)[C@H](Cc2c[nH]c3ccccc23)NC(=O)[C@H](CCCNC(=N)N)NC(=O)[C@H](Cc2c[nH]c3ccccc23)NC(=O)[C@H](CCCNC(=N)N)NC(=O)[C@H](Cc2c[nH]c3ccccc23)NC(=O)[C@H](CCCNC(=N)N)NC(=O)[C@H](Cc2c[nH]c3ccccc23)NC1=O | SRC | enzyme activity, inhibitor, radiometric |  | 5 µM |  | 1.4
CC[C@H](C)[C@H](NC(=O)[C@H](CCC(=O)O)NC(=O)[C@@H](NC(=O)[C@H](CCC(N)=O)NC(=O)[C@@H](N)CCCCN)[C@@H](C)CC)C(=O)N[C@@H](CCCCN)C(=O)N[C@@H](CCCCN)C(=O)N[C@@H](Cc1ccccc1)C(=O)N[C@@H](CCCCN)C(=O)O | Gap junction alpha-1 protein (GJA1, Homo sapiens, UniProt P17302) | hemichannel charge transfer, whole-cell voltage clamp | HeLa-Cx43 | 400 µM, intracellular, up to +70 mV | baseline: control | ~25
